Measured values gathered from unrelated publications.
Numbered parts are unrelated; each lists some results of a single study. Substitutions count along the parent as printed.

Sample 1
Target: Interferon regulatory factor 3, full length, phosphomimetic (IRF3, Homo sapiens, UniProt Q14653, residues 1-427, S386D/S396D/S398D/S402D/T404D/S405D)
Chain of UniProt Q14653 (whole entry, unmodified, looked up): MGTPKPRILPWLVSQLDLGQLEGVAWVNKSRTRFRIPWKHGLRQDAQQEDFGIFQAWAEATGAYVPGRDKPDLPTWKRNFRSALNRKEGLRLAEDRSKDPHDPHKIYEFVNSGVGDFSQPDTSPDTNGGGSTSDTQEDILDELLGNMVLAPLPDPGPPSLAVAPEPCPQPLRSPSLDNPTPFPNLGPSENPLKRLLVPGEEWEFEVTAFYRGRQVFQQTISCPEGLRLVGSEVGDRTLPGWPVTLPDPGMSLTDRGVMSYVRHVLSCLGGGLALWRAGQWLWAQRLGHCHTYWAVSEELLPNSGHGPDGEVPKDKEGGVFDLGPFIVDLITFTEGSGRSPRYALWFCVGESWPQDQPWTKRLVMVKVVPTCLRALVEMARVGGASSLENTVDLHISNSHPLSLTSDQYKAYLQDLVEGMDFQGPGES
Technique: protein-binding microarray
Form: double-stranded DNA, one strand shown
Matrix: in vitro
Tested at: 2540 nM top
Setting: 60-bp whole probe
Together with: salmon DNA 0.4 mg/ml
Relative to: random background probes
Reading: higher = stronger binding
Endpoint: fitted relative affinity
All sequences stand within: GCCTAGCAC … GTCTTGATTCGCTTGACGCTGCTG
TCAAAAATCATTTTCTCACTGTGCTAG: 1.19 z-score
TTAGAACGGAGTATCGATTAGTGCTAG: 0.455 z-score
GACCGTCTCGGACTGGGGACGTGCTAG: 0.751 z-score
GACGGTTTTGGGACTGGGGACGTGCTA: 1.2 z-score
TGTCTGTCTGTCACCCGGACGTGCTAG: 0.158 z-score
GACGGTTTCGGACTGGGGAAGTGCTAG: 4.76 z-score
GACGGTATCGGTCCCGGGACGTGCTAG: 2.54 z-score
GACGAACTGAGTTTAGAGACGTGCTAG: -0.121 z-score
TTAGGTATCGGTTTCGATTAGTGCTAG: 7.86 z-score
TCATTTTTTTTTTTTCTACTGTGCTAG: 1.58 z-score
TCACTTATCCAATCAGAACTGTGCTAG: 1.65 z-score
TTAGATAGCAGTTTCGATTAGTGCTAG: 3.39 z-score
TTAGGAGTGGGGACTGGGTTAGTGCTA: -1.04 z-score
GACGTTTTCGGTTTCGGGACGTGCTAG: 7.35 z-score
ATGTATACACACTATAGTGAAGTGCTA: 0.297 z-score
CTTTCTCTCTGTGACACAGAGTGCTAG: 5.97 z-score
GACGATCTCACTATCGAGACGTGCTAG: 0.856 z-score
TTTGATTTCAGTATCGATTAGTGCTAG: 2.8 z-score
GACGGTTTCGGGTTCGGGACGTGCTAG: 5.42 z-score

Sample 2
Target: ABI1, truncated, D143A, DHFR fusion (Arabidopsis thaliana)
Technique: DHFR PCA, deep sequencing
Matrix: yeast
Setting: methotrexate growth selection, single substitutions
Together with: (+)-ABA 17 µM
Relative to: wild-type fitted maximum
Reading: higher = stronger binding
Endpoint: relative binding score
Starting sequence: PYL1, truncated, DHFR fusion (Arabidopsis thaliana); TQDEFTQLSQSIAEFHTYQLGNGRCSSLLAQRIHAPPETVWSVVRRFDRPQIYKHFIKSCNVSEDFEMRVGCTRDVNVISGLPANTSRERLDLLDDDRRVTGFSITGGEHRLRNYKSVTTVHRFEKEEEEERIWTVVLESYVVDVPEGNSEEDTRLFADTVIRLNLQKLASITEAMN
F124R: 48.8%
S26H: 79.9%
G71K: -4.74%
T1L: 83.6%
Q167N: 83.8%
I52K: 74.4%
Q51P: 9.27%
G148Y: 37.4%
P37Q: 48.3%
D159C: 11.9%
T6W: 75.6%
V136N: 3.29%
E4G: 67.7%

Sample 3
Target: CCNA2, cyclin fold, Cln2 fusion (human)
Technique: yeast growth competition, sequencing
Matrix: yeast
Setting: strong parent motif
Relative to: not given
Reading: higher = stronger binding
Endpoint: normalised enrichment score
Starting sequence: HASPIN docking peptide (human); ASLRSVLFGLMNS
ASLRSVLFGLMNA [S13A]: 1.35
ASLRSVLFGLANS [M11A]: 1.82
ASLASVLFGLMNS [R4A]: 0.69
ASLRSVLAGLMNS [F8A]: 1.05
ASLRSVLFALMNS [G9A]: 1.85
AALRSVLFGLMNS [S2A]: 0.846

Single results of other studies
PhoQ, residues 284 288 289 292 302 303 MLMVEA
fold induction (PhoP, residues 12 14 15 18 19 AGCRL (Escherichia coli, UniProt P23836); Sort-seq, item: YFP reporter; E. coli; PhoQ-PhoP variant library, together with: 10 µM Mg2+; relative to: high Mg2+ state, higher = stronger signaling): 7.85

Some of these lines once more (sample 1):
TCACTTATCCAATCAGAACTGTGCTAG: 1.65 z-score
TCATTTTTTTTTTTTCTACTGTGCTAG: 1.58 z-score
GACGGTTTTGGGACTGGGGACGTGCTA: 1.2 z-score
TTAGAACGGAGTATCGATTAGTGCTAG: 0.455 z-score
